# Assay results from different studies.
# Each line is one published result; not all experiments were run side by side. Several values in a cell are separate wells, animals, samples, runs or records. ± marks the error that the study gave.
# UniProt Q8NEB9, sequence (whole entry, looked up): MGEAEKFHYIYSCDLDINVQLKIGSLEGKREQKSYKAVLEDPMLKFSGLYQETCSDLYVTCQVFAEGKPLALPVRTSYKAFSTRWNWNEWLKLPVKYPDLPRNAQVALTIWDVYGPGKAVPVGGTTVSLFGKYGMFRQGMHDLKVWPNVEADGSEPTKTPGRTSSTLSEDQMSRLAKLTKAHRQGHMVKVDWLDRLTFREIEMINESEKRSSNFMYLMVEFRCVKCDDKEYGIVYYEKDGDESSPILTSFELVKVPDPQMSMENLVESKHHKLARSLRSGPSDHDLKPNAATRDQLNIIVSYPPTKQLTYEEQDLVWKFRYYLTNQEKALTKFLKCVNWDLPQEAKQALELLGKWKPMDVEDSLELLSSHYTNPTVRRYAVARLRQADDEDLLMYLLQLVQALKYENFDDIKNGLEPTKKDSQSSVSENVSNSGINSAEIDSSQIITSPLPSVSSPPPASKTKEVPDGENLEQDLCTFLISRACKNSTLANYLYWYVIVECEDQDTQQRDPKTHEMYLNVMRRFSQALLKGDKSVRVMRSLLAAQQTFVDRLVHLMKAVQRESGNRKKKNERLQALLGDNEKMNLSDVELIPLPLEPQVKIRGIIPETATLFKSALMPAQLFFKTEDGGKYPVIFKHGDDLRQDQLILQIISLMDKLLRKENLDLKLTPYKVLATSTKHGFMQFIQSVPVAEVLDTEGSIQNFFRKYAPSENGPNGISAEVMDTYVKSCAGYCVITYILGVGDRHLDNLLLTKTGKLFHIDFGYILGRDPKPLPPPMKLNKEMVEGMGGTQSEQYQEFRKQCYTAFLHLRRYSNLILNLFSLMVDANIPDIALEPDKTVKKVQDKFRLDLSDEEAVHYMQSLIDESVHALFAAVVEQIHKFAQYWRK
Compound,tested on,assay,test system,conditions,how to read,quantity,result
CN1CCCNC(=O)c2cccc(c2)C(=O)NCCCN(C)CCCNc2cccc3c2C(=O)c2cccc(c2C3=O)NCCC1,SAS,"RNA-Seq, measured: SSR2 mRNA",,"5 µM, 24 h",relative to: untreated cells,log2 fold change,-2.25
CC(=O)O[C@@H]1[C@@H](OC(C)=O)[C@H](Sc2sc(C(=O)c3ccc(Br)cc3)c(N)c2-c2nc3ccccc3s2)OC[C@H]1OC(C)=O,hepatitis A virus,plaque reduction,HM 175,"non-toxic dose NG, mean over three titres",,viral reduction,23.3%
CCCCNC(CCCC)CSS(=O)(=O)O (stereo not drawn),Schistosoma mansoni,,infected mice,"100 mg/kg x4, dosed from day 11, perfusion day 25",,mean worms recovered,65 worms per mouse
CC1=C(Cn2cc(CN3CCC(F)(F)CC3)nn2)C(=O)c2ccccc2C1=O,Schistosoma mansoni,,adult worms,"25 µM, 24 h",,killing,43.1%
CC(=O)O[C@@H]1[C@@H](OC(C)=O)[C@H](Sc2sc(C(=O)c3ccc(Cl)cc3)c(N)c2-c2nc3ccccc3s2)OC[C@H]1OC(C)=O,hepatitis A virus,plaque reduction,HM 175,"non-toxic dose NG, mean over three titres",,viral reduction,10%
CCCCCCCCCC(=O)N[C@@H](Cc1c[nH]c2ccccc12)C(=O)N[C@H](CC(N)=O)C(=O)N[C@@H](CC(=O)O)C(=O)N[C@@H]1C(=O)NCC(=O)N[C@@H](CCCNC(=O)OC2/C=C/CCCCC2)C(=O)N[C@@H](CC(=O)O)C(=O)N[C@H](C)C(=O)N[C@@H](CC(=O)O)C(=O)NCC(=O)N[C@H](CO)C(=O)N[C@@H]([C@H](C)CC(=O)O)C(=O)N[C@@H](CC(=O)c2ccccc2N)C(=O)O[C@@H]1C (stereo partly drawn),Staphylococcus aureus,isothermal microcalorimetry,MRSA,"3.0 µg/mL, 24 h, 37 °C",,peak heat flow,0 µW
[2H]C([2H])([2H])C1(C([2H])([2H])[2H])NC(=O)N(c2ccc(F)c(C(C)(F)F)c2)C1=O,Schistosoma mansoni,,mouse,"oral, 25 mg/kg single dose, dosed one day before infection",,worm burden reduction,59%
CCn1c(C)c(CC(=O)N[C@@H](Cc2ccccc2)C(=O)N(C)c2ccc(Cl)cc2)c2ccccc21,HIV-1,infectivity of progeny virus,"HEK293FT, NL4-3",,,EC50,0.67 ± 0.2 µM
CNS(=O)(=O)Nc1nccc(Cc2c(C)c3ccc(Oc4ncccc4F)cc3oc2=O)c1F,U-118-MG,cell viability,,7 days,,IC50,0.22 µM
CC(C)NCC(SS(=O)(=O)O)c1ccccc1 (stereo not drawn),Schistosoma mansoni,,mice,"daily x4, 100 mg/kg, from day 11, perfusion day 25",,total worms recovered,46 worms per mouse and 26 worms per mouse and 21 worms per mouse
COC1CN([C@H]2CC[C@H]([C@@]3(C)Oc4c(Cl)cc(C(=O)NCc5c(SC)cc(C)[nH]c5=O)c(C)c4O3)CC2)C1,,"RNA-seq, measured: RIDA mouse homolog","mouse, HT-1376 xenograft, whole blood",dose not given,relative to: vehicle,log2 fold change,0.0447
Nc1ncc(-c2cc(-c3cnn(CC(F)(F)F)c3)ncc2F)nc1C(=O)NC1CNCC(F)C1 (stereo not drawn),WEE2,KINOMEscan,,1 µM,relative to: DMSO control,remaining binding,79%
CCCOC(=O)N1c2cc(CNC)ccc2[C@H](NC(=O)C(=O)Nc2ccc(Cl)c(F)c2)[C@H]1CNC(=N)N,HIV-1,"pseudovirus infection, Env pseudovirus neutralisation","TZM-bl, clade C T/F isolate 2A2",,,IC50,11 µM
FC(F)(F)c1cccc(CNc2nc(NC3CCN(Cc4ccccc4)CC3)c3nc[nH]c3n2)c1,Cryptococcus neoformans,,wild type,17 h,,growth-inhibitory concentration,≥ 36 µM
O=C(NCC(O)(Cn1cncn1)c1ccc(F)cc1F)[c-]1cccc1.[Cl-].[Co+3].c1cc[cH-]c1 (racemic),Brugia pahangi,"motility, Worminator",adult female,"50 µM, 3 d",,inhibition,0%
Cc1nn(-c2cccc(N)c2)c(=O)c2cnc(Nc3ccc(N4CCNCC4)cc3)nc12,"PIK3C3 (Homo sapiens, UniProt Q8NEB9)","kinase activity, inhibitor, SelectScreen kinase profiling",,,,IC50,> 10 µM
C=C1CC[C@H](OCCCNC(=O)CCOCCOCCOCCOCCOCCOCCOCCOCCOCCOCCOCCOCCOCCOCCOCCOCCOCCOCCOCCOCCOCCOCCOCCOCCOCCOCCOCCOCCOCCOCCOCCOCCOCCOCCOCCOCCNC(=O)CCN2C(=O)CC(SC[C@H](NC(=O)[C@H](Cc3ccccc3)NC(=O)[C@H](CC(N)=O)NC(=O)[C@H](Cc3c[nH]cn3)NC(=O)[C@@H](NC(=O)[C@H](CC(=O)O)NC(=O)[C@H](CCC(N)=O)NC(=O)[C@H](CC(C)C)NC(=O)[C@H](CCCCN)NC(=O)[C@H](CCCCN)NC(=O)[C@H](CCCNC(=N)N)NC(=O)[C@H](CC(C)C)NC(=O)[C@H](Cc3c[nH]c4ccccc34)NC(=O)[C@H](CCC(=O)O)NC(=O)[C@@H](NC(=O)[C@H](CCCNC(=N)N)NC(=O)[C@H](CCC(=O)O)NC(=O)[C@H](CCSC)NC(=O)[C@H](CO)NC(=O)[C@H](CC(N)=O)NC(=O)[C@H](CC(C)C)NC(=O)[C@H](Cc3c[nH]cn3)NC(=O)[C@H](CCCCN)NC(=O)CNC(=O)[C@H](CC(C)C)NC(=O)[C@H](CC(N)=O)NC(=O)[C@H](Cc3c[nH]cn3)NC(=O)[C@H](CCSC)NC(=O)[C@H](CC(C)C)NC(=O)[C@H](CCC(N)=O)NC(=O)[C@@H](NC(=O)[C@H](CCC(=O)O)NC(=O)[C@H](CO)NC(=O)[C@@H](NC(=O)[C@@H](N)CO)C(C)C)[C@@H](C)CC)C(C)C)C(C)C)C(=O)O)C2=O)C/C1=C/C=C1\CCC[C@]2(C)[C@@H]([C@H](C)CCCC(C)(C)O)CC[C@@H]12 (stereo partly drawn),,,"male cynomolgus monkey, plasma","intravenous, 0.02 mg/kg, single dose",,clearance,0.122 mL/min/kg
Cc1ncsc1-c1ccc(C(C)NC(=O)C2CC(O)CN2C(=O)C(NC(=O)CCCCCCCCCCN2CCCC(Nc3ncc(Cl)c(Nc4ccccc4S(=O)(=O)C(C)C)n3)C2)C(C)(C)C)cc1 (stereo not drawn),22Rv1,"RNA-seq, measured: ZNF610 mRNA",,concentration not given,relative to: DMSO,log2 fold change,-1.97
CC1(C)[C@H](NC(=O)/C(=N\OCC(=O)N2CCC(C(=O)O)C2)c2nsc(N)n2)C(=O)N1OS(=O)(=O)O (stereo partly drawn),Proteus mirabilis,agar dilution,"ATCC 49565, susceptible",,,MIC,1 µg/mL
Cc1c(CC(=O)N[C@@H](Cc2ccccc2)C(=O)N(C)c2ccc(Cl)cc2)c2ccccc2n1C(C)C,HIV-1,infectivity of progeny virus,"HEK293FT, NL4-3",,,EC50,0.74 ± 0.07 µM
C=CC(=O)Nc1cccc(Cn2ncc3cnc(Nc4cnn(CCOC)c4)nc32)c1,WEE2 human,"binding, KINOMEscan",,100 nM,lower = stronger binding,percent of control,100%
CC1C=CC=CC(C)C2C=CC3CC(C)(O)C(Cl)C(C)C3C2C(=O)C(Cl)(Cl)C(=O)C(C)C(=O)O1 (stereo not drawn),Staphylococcus aureus,,MRSA clinical isolate,resistant OXA/ERY/TET,,MIC,0.1 µg/mL
C=C(NC(=O)c1csc(-c2nc3c(cc2O)-c2nc(cs2)C(=O)NC(C(C)O)C(=O)NC(=C(C)OC)c2nc(cs2)C(=O)NC2c4nc(cs4)C(=O)NC(COC(=O)c4c5c6c(cccc6n4O)COC(=O)C(OC4CC(C)(O)C(N(C)C)C(C)O4)C2OC5)c2nc-3cs2)n1)C(N)=O (stereo not drawn),Streptococcus agalactiae,microbial growth,,clinical isolate,,MIC90,0.125 µg/mL
C=C[C@]1(C)C[C@@H](OC(=O)CSc2ccc(NC(=O)c3ccco3)cc2)[C@]2(C)[C@H](C)CC[C@]3(CCC(=O)[C@H]32)[C@@H](C)[C@@H]1O,Mycoplasma gallisepticum,,infected chickens,"intramuscular, 5 mg/kg daily x3, scale 0 to 4",direction not given,air sac lesion score,3 and 1 and 2

# Repeated from above:
Compound,tested on,assay,test system,conditions,how to read,quantity,result
O=C(NCC(O)(Cn1cncn1)c1ccc(F)cc1F)[c-]1cccc1.[Cl-].[Co+3].c1cc[cH-]c1 (racemic),Brugia pahangi,"motility, Worminator",adult female,"50 µM, 3 d",,inhibition,0%
Cc1nn(-c2cccc(N)c2)c(=O)c2cnc(Nc3ccc(N4CCNCC4)cc3)nc12,"PIK3C3 (Homo sapiens, UniProt Q8NEB9)","kinase activity, inhibitor, SelectScreen kinase profiling",,,,IC50,> 10 µM
